Measurements pooled from the literature.
Parts stem from different laboratories: compare values within a part only. Positions count from the first letter of the parent shown.

Set 1
Target: RNA binding protein fox-1 homolog 2, RRM domain, GST-SBP tag (RBFOX2, Homo sapiens, UniProt O43251-10, residues 100-194)
Method: RNA Bind-n-Seq
Molecule type: RNA
Medium: in vitro
Tested at: 365 nM
Setting: natural RNA segment, single round, ends assumed
Relative to: no-protein control
Reading: higher = stronger binding
Quantity: RBNS enrichment (R)
Target sequence (chain): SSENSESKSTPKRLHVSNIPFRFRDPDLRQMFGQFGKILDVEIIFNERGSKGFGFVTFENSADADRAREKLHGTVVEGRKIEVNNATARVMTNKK
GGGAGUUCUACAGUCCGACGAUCCUUUGUCCUAAGCUCUCUCCCAGGCCACGUUGUUAUUCACUGGGCAUGGAGAGAUGGUCAUUUCGUGGUCUACUGGAUGAGGCCUAUAGUUGAGACUUGUAGACAUUUAUUGGAAUUCUCGGGUGCCAA: 0.36
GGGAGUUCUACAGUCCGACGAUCUGUUCUUUGUCAUAGGGGUGAAAAACUAACUUCAAGUGUCCCUUGUUUGAAAUAAACUUAGCAGAGUACUUUCUAUCUUAUUUGUUUGUUCACUGUGUGUUUGACUGUAUUGGAAUUCUCGGGUGCCAA: 0.485
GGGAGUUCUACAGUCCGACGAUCUGAAUGCUGCUGCUGAGACUGAAGACCAGUAUUUCAGAACUUUGAGAAUUGGAGAGCAGGCACAUCAACUGAUCUCAUUUCUAGAGAGCCCCUGACAAUCCUGAGGCUUCUGGAAUUCUCGGGUGCCAA: 0.568
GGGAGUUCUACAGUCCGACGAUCAAACCUAAUUAACUAAAGCAUUUAAGGCACUAUUUAUUUUAGAAUCAUGCUUUUGAAGAGCAUCAGUGAUUACUUAGGGUGUAAUAUGUAAAGAUCAGACAUCUCCAAAAUGGAAUUCUCGGGUGCCAA: 0.606
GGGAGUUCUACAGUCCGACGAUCCUACUGAAUCAGAAACCCUGGGGUUGGAGCUCAGCAAUUACCCUGCAGGUAAUUCUGAUGCAUGCUCAAGUUUGAGAACCACUGGCCUAGAAGAAAUGAACUACUGCAACUGGAAUUCUCGGGUGCCAA: 17.8
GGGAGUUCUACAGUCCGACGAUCUUUGCCUUAACUCCACUGCUGUGGUUGUUCCUUGGACCUGACCGAUGCUCAUACAAUAAUCUCAAGAGCCCUGUCUGUUUCGUAAUAGUAACUACUUCUCAUGAACACUAUGGAAUUCUCGGGUGCCAA: 0.34
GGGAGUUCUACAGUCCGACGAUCAAGGUUUCCACAUUCGAUGAUGUCAACCUAAACCAGCAGCCAUCCCGCUUGUCCCUCUUAGGCAUUUCAGGCUUCCUUUGGGAUUUCAGGUGUCCCAUGAUCUUGAUGUGUGGAAUUCUCGGGUGCCAA: 0.418
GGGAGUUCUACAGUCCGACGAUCUUGUACAAAAUUUUAAAGACUUAAUUUAUUGCCAAAAUUCUGUGUAAAGUGACAGUGUAUCUAACAGUUGUUAGAGAACUCCCCAUUUCUGUUCCCCUGUGCUGUGUAUGUGGAAUUCUCGGGUGCCAA: 1.59
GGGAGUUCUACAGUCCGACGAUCCAGGACCCCUCAGCUCCCCGGCACUGCAGUCUGCAGAGUUCUCCUGGAGGCAGGGGCUGCUGCCUUGUUUCACCUUCCAUGUCAGGCCAGCCUGUCCCUGAAAGAGAAGAUGGAAUUCUCGGGUGCCAA: 1.61
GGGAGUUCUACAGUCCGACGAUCGCACAAAAGGUUUUGGUUUUGGUCUGGUGUAGCUUUGGCUGUCCUGAAAUGAAACACUCACUAUAUAAACCACACUUGCCUCACAGAGAUCCUCCUGCCUCUGUCUCCUGUGGAAUUCUCGGGUGCCAA: 0.357
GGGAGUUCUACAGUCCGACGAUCGGGGAGACGCUCUAUUUUUUCACAGUUAAAUGACAGUUGUAGAUUGAUACGCAGUUGUGCAUGGGAAGGGGAAACGCACAGCUUUAUUUACUGUAAAGUGGAAUUUCAGGUGGAAUUCUCGGGUGCCAA: 1.77
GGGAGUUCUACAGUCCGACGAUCUGGCCAGCCUUCAGCUCGCUCCUCCACUUCUGAGGGGCCUAGGAGGCCUCCCACAGGUGUCCCGGCAAGAGAAGACACGGUGGUGGAAGAAGAGGCCUGGUAAUGGCCCCUGGAAUUCUCGGGUGCCAA: 0.445

Set 2
Target: RING finger protein unkempt homolog, zinc fingers 1-6, SBP tag (UNK, Homo sapiens, UniProt Q9C0B0, residues 30-357)
Sequence of UniProt Q9C0B0 (30-357, looked up): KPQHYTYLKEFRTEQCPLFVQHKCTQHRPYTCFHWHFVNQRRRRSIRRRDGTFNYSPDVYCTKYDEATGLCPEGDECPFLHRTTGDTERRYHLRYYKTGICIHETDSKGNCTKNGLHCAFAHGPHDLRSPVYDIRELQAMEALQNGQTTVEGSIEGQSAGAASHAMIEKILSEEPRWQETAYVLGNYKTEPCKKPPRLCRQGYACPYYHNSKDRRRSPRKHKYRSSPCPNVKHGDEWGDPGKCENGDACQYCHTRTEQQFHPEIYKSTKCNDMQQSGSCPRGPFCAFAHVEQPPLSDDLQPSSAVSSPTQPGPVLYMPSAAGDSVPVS
Method: RNA Bind-n-Seq
Molecule type: RNA
Medium: in vitro
Tested at: 100 nM
Setting: RNA with constant flanks, vertebrate orthologous sites, ends assumed
Relative to: input RNA pool
Reading: higher = stronger binding
Quantity: bound/input enrichment
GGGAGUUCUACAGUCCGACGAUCGUUGGUGCAGAGUGCUCUCUGUGCCGGUGCCCAUCAUCCUUUCUUCAUACCAACUGUCCCUAGUUCUAGGAAUUUAAUAUUUUUAAAAGUUUUACAUUGCUGUAUAUUCAAAGAUUUGUUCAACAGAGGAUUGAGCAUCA: 0.79 ratio
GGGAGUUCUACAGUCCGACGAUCUGCUCCAGUGUAGCAAUUAGUGAGCUUUCCCCUGCUGCUUUCAAGAAAAGAAAUCCCAAAUAGAUUCCUCACCCAUCUGAUUGCACUAUUCUGGGCUUAGUGUCUGUGAUUUUUUACAUACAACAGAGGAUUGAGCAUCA: 1.38 ratio
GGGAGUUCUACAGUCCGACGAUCACAGUCCUCUUCUUAAACUGGUAUUUUCACACAAUAGGAAACUAUUAUUGUUUUUCACAGUCUAGUAUCUGGGUUUUACACGGAAGACUAAACUCAUGCUUACAGCUAAACGUGGUCUUUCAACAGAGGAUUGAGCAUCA: 0.389 ratio
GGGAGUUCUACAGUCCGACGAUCGUUGUGACCCGUUUAAUAUACACAAAAAGCUAGCCAAAAAGAAUCUGCAUGUAAUUGACUUAGAUGAUGCCACGUUUCUGAGUGCAAAGUUUGGAAGACAGCUGGUACCUGGUUGGAAGCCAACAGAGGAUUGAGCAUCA: 0.638 ratio
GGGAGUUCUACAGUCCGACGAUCAGUAGUUUUAAGCUUGUUUGCACAGUUCUUUUUUUCCAUUGGAAAUGGAAUCCAUUGCCUUAGGUCUUCUUAAAUAGUGUAUUAUUAUCGUUGGGGCUGGCUCUAUGCUUGAAAACCAGUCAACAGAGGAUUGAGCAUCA: 2.17 ratio
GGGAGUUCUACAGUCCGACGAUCCUACUAUAAACAACUCAGGGCAGUAUUCUCGAUAUCCUUACAGUAACCUAAAUCAGGGAUUAGUUAACAAUACAGGGAUGAAUCAAAAUUUAGGCCUUACAAAUAAUACUUCAAUGAAUCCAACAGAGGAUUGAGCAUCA: 1.79 ratio
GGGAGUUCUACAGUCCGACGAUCUUUUCACAAUCUACUCAAGUAGGUUUACAUACCACAUUAAGCCUUCAUUUGACAUAUUUACAGCUUUUCUGUUUUCCAGAUGAGAUAAAAGAAUUUAAUGCUUAAAAUUAAAUACGGUCUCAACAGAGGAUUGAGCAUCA: 0.295 ratio
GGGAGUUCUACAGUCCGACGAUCAUCUACUUACUAGACUGGGAUUUUCAAACAAUAGGAAGCUUUUUUUUUUUUUUUUACAGUUAUCUGGUUUCUAUGUGGAAGACUAAAGUCAUGCUUAGAGCUAAAUGUGGUCUUUGCCAACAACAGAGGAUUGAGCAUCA: 1.7 ratio

Set 3
Target: Interferon regulatory factor 7, full length, phosphomimetic (IRF7, Homo sapiens, UniProt Q92985, residues 1-503, S471D/S472D/S475D/S476D/S477D/S483D/S484D/S487D)
Method: protein-binding microarray
Molecule type: double-stranded DNA, one strand shown
Medium: in vitro
Tested at: 2200 nM top
Setting: 60-bp whole probe
With: salmon DNA 0.4 mg/ml
Relative to: random background probes
Reading: higher = stronger binding
Quantity: fitted relative affinity
Shared flanks, not repeated: GCCTAGCAC … GTCTTGATTCGCTTGACGCTGCTG
Target sequence (chain): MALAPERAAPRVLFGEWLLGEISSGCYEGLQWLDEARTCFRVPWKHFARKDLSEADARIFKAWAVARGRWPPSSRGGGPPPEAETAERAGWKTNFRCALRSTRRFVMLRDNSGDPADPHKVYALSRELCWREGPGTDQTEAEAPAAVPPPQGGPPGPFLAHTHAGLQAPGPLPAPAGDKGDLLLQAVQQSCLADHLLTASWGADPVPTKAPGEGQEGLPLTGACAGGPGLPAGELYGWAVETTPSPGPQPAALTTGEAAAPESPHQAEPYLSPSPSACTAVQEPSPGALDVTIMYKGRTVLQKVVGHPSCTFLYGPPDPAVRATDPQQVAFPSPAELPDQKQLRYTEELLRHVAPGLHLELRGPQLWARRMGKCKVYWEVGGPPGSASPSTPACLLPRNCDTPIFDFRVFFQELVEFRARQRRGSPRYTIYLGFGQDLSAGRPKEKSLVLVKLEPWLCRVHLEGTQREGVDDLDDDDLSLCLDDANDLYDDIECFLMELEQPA
GTAGGTATCGGTTTCGGTTAGTGCTAG: 7.02 z-score
TTAGAACTAGGGTATCGATTAGTGCTA: -0.812 z-score
CCCTAGGGGCTCTCAGAGATGTGCTAG: -2.09 z-score
TCAGGTATCCTTTTCCTTTAGTGCTAG: 2.47 z-score
GACGAACTGATTATCGAGACGTGCTAG: 0.0256 z-score
TCAATTCTCTACTTGTGACTGTGCTAG: 1.1 z-score
GACGAACTGAGACAGGAGACGTGCTAG: -0.447 z-score
GACGGTTCCCTTTCCCTGACGTGCTAG: 2.02 z-score
CCCTGCGTGGTCTCGAGCTGGTGCTAG: -0.97 z-score
TTCCTTTCTCTTCCGTTAGCGTGCTAG: 4.33 z-score
TTAGATCTCGGTCTCGATTAGTGCTAG: 0.55 z-score
TCAGTTTTCTTTTCCATTTTGTGCTAG: 6.35 z-score
TCAGTTCCCTATATAAGACTGTGCTAG: 1.89 z-score
GACGGACTGGGGACTGGGGGCGTGCTA: 0.0532 z-score
TTAGATTTCAGGCTCGATTAGTGCTAG: -0.0275 z-score
TTAGGTATTGGGTATCGGTTAGTGCTA: 0.463 z-score

Set 4
Target: Sal-like protein 4, full length isoform A (SALL4, Homo sapiens, UniProt Q9UJQ4, residues 1-1053)
Sequence of UniProt Q9UJQ4 (whole entry, looked up): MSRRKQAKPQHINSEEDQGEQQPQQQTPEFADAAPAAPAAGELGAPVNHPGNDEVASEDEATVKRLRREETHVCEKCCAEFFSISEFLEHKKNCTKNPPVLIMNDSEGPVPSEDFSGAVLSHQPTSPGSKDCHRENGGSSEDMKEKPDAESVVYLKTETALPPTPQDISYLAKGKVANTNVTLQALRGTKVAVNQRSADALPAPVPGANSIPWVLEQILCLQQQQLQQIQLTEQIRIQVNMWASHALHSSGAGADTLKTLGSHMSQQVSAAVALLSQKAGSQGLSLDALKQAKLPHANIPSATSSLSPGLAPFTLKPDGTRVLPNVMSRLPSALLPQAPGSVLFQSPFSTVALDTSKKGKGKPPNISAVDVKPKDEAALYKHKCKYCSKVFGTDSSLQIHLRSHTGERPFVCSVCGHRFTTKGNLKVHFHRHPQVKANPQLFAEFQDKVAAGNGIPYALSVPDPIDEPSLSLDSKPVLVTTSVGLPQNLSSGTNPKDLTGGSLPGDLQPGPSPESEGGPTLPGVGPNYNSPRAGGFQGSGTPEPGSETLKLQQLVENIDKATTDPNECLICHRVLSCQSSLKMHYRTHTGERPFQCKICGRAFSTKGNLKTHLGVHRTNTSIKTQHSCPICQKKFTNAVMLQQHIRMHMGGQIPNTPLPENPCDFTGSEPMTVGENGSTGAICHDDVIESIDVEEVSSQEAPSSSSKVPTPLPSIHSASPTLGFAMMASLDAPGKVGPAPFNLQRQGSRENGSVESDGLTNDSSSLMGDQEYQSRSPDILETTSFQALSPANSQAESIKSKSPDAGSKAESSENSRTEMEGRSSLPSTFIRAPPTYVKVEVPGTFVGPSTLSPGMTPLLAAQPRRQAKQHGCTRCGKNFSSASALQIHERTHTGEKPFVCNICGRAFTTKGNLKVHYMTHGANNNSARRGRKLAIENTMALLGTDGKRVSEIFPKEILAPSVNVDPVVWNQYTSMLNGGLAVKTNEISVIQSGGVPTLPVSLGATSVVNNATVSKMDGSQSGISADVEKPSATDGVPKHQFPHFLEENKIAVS
Method: universal PBM
Molecule type: double-stranded DNA, one strand shown
Medium: in vitro
Tested at: 600 nM
Setting: 8-mer, flanks averaged, mean of replicates
Reading: higher = stronger binding
Quantity: E-score
CAAGGGGC: -0.284
CACTCGAC: -0.151
CAGTCCGA: -0.153
CCATCACA: -0.051
CAGAGTGA: -0.0357
AAGCGACC: -0.19
CACATGGC: -0.107
ACCCGGTC: -0.413
GAAGGGCC: -0.339
GCCTCCGC: -0.368
AATGCTAA: 0.182
AGACATCC: -0.0912
AACGTCCC: -0.157
AGAAACAT: 0.286
ATGGACCA: 0.0214
AAACGTAC: 0.0538
TGTTGGAA: 0.203
CGAAAACC: 0.00809
AGGGTTAA: 0.0733
GATAGCCC: -0.22
CCGTGCCG: -0.193
GCTCCACC: -0.295
CCCTCTCG: -0.275

Set 5
Target: CCNA2, cyclin fold, Cln2 fusion (human)
Method: yeast growth competition, sequencing
Medium: yeast
Setting: strong parent motif
Relative to: not given
Reading: higher = stronger binding
Quantity: normalised enrichment score
Starting sequence: GMNC docking peptide (human); KNAKRNLSSEFAN; partner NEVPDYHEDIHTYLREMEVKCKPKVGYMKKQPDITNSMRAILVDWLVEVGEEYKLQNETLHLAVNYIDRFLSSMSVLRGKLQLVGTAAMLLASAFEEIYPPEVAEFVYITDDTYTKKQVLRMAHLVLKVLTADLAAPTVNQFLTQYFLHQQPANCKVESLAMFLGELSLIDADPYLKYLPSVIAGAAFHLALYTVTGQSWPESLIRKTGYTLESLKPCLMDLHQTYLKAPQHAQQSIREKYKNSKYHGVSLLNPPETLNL
N6S: 4.7
S8L: 6.5
N2T: 6.1
E10M: 3.32
S9I: 5.59
A3V: 6.04
K4D: 0.295
N2C: 5.04
R5F: 0.123
N6W: 0.654
K4G: 1.04
R5E: 0.345
K4F: 4.14
A3F: 5.39
A12H: 4.71
N6M: 1.31
F11T: 0.77
N6Q: 1.7
E10S: 2.51
K4Y: 4.2

Set 6
Target: Histone acetyltransferase KAT6A, winged helix 1, GST fusion (KAT6A, Homo sapiens, UniProt Q92794, residues 1-85)
Method: protein binding microarray
Molecule type: double-stranded DNA, one strand shown
Medium: in vitro
Tested at: not given
Setting: 8-mer, flanks averaged, mean of 2 arrays, mostly near background
Relative to: not given
Reading: higher = stronger binding
Quantity: E-score
Target sequence (chain): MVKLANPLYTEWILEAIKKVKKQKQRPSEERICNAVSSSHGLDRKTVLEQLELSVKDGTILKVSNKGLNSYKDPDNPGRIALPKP
CCGGGATC: 0.328
AGGTATCC: -0.0653
GATGGAAC: -0.224
CCCCGGCG: 0.439
ATAAACTC: -0.146
TACTCACA: -0.253
AAGCTCGC: 0.0903
CGTAACCA: 0.0834
CAGAAATG: -0.174
ATTTCCGG: 0.162
CCAAGGGC: 0.0199
AGTAGCAC: -0.103
ACAGTGCG: 0.26
AAGATCTG: -0.104
GCCATTGA: -0.0444
GGATGAAC: -0.0939
CACTGAGA: -0.114
CCCTTGTC: -0.151
AGATGCGG: 0.0323
ACAGGCAT: -0.057
GTGAATGA: -0.165
